# Assay results of several laboratories.
# Protocols differ between the studies behind these lines. Numbers after ± are the reported error.
# Sequence of UniProt P10635 (whole entry, looked up): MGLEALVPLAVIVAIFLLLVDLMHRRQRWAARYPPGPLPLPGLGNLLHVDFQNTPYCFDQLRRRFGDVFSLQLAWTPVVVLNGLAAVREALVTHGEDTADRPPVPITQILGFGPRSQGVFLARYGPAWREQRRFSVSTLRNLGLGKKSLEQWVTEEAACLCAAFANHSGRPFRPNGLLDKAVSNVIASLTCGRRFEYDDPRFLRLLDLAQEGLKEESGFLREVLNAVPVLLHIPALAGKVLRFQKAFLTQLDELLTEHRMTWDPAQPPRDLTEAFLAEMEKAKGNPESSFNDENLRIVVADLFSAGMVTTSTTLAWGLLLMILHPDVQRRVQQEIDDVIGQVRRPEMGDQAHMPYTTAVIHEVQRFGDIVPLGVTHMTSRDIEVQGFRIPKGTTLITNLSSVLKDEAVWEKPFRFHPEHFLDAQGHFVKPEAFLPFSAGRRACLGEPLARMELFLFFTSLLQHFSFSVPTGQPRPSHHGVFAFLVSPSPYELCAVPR
# Sequence of UniProt Q16816 (whole entry, looked up): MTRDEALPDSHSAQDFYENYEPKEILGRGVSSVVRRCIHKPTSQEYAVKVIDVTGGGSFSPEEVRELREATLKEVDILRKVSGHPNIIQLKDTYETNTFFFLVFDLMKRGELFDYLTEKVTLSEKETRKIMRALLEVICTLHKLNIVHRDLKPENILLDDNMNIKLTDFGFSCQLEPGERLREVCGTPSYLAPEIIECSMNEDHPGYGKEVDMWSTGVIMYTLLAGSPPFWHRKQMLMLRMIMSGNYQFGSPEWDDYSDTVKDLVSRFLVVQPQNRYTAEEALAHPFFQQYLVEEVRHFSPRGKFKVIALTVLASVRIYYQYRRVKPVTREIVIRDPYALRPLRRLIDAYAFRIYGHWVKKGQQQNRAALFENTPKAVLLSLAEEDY
# Sequence of UniProt Q9NPD5 (whole entry, looked up): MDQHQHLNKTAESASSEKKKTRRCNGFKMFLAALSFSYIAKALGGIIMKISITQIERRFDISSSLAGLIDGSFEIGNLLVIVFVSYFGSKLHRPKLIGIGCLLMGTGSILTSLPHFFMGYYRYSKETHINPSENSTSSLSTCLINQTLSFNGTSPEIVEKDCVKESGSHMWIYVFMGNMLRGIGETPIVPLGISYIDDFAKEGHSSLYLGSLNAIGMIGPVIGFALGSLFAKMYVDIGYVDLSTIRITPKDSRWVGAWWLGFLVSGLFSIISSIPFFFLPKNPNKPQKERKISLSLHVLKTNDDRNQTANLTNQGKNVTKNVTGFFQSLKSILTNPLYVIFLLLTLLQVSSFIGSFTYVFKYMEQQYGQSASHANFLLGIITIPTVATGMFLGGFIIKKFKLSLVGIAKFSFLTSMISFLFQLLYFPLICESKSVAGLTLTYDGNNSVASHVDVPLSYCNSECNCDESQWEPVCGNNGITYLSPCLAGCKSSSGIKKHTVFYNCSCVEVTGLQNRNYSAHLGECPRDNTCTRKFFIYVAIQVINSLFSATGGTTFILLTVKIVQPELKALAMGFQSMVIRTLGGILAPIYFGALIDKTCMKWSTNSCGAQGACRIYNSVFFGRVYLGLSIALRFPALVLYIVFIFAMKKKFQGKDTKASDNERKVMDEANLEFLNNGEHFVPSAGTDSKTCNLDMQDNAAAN
# Sequence of UniProt Q9UNQ0 (whole entry, looked up): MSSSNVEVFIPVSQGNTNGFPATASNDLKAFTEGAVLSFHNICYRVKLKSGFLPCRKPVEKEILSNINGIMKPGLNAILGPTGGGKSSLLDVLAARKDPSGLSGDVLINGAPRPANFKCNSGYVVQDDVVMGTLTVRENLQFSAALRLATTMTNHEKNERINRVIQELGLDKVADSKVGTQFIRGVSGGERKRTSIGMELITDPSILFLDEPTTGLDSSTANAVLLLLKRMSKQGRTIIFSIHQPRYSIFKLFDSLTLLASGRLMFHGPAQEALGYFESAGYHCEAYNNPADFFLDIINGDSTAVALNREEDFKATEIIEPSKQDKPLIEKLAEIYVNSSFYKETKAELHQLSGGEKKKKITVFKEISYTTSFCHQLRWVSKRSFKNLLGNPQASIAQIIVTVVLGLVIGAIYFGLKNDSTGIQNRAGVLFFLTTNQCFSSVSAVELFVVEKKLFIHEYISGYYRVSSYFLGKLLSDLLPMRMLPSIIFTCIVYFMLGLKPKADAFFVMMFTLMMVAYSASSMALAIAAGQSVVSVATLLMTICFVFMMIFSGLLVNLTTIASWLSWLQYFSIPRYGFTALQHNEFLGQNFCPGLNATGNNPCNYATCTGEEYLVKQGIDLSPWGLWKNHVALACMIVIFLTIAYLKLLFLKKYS
SMILES,tested on,test,test system,conditions,how to read,quantity,value
N#C[C@@H]1CC(F)(F)CN1C(=O)CNC(=O)c1ccnc2c(NC(=O)[C@H](CCCCNC(=O)CCOCCOCCOCCOCCOCCOCCNC(=O)CN3CCN(CC(=O)[O-])CCN(CC(=O)[O-])CCN(CC(=O)[O-])CC3)NC(=O)CCCc3ccc(I)cc3)cccc12.[177Lu+3],U-87 MG tumour model,,"host not given, blood","48 h, tumour-bearing",,tracer uptake,0.33 %ID/g
CNc1nc(N)nc2c1ncn2[C@@H]1O[C@H](CO[P@](=O)(O)N[C@@H](C)C(=O)O)[C@@H](O)[C@@]1(C)F,"ABCG2 (Homo sapiens, UniProt Q9UNQ0)",bidirectional transport,MDCKII transfected with human BCRP,"10 µM, with: Ko143 1 µM",,Papp B to A,0.985 ± 0.059 ×10⁻⁶ cm/s
CNC(=O)C1CCCN(C(=O)C2CC3CCC2N3C(=O)[C@@H]2C[C@@H](O)CN2C(=O)NCc2cccc(Cl)c2F)C1 (mixture of isomers),"Cytochrome P450 2D6 (CYP2D6, Homo sapiens, UniProt P10635)","enzyme activity, inhibitor, time-dependent inhibition",,"0.206 µM, preincubated without NADPH",reference: negative control,remaining activity,99.3%
C=C(NC(=O)c1csc(-c2nc3c(cc2O)-c2nc(cs2)C(=O)NC(C(C)O)C(=O)NC(=C(C)OC)c2nc(cs2)C(=O)NC2c4nc(cs4)C(=O)NC(COC(=O)c4c5c6c(cccc6n4O)COC(=O)C(OC4CC(C)(O)C(N(C)C)C(C)O4)C2OC5)c2nc-3cs2)n1)C(N)=O (stereo not shown),,,"Sprague-Dawley rat, male, plasma","intravenous infusion, 6 mg/kg single dose",,clearance,55.2 mL/min/kg
COc1cccc(OC)c1-c1cc(C(=O)NC2(C(=O)O)C3CC4CC(C3)CC2C4)nn1-c1ccc(C(=O)N(C)CCOCCN(C)C(=O)[C@H](CCCCNC(=O)[C@H](CC(C)C)NC(=O)C2OC2C(=O)O)NC(=O)CN2CCN(CC(=O)[O-])CCN(CC(=O)[O-])CCN(CC(=O)[O-])CC2)cc1C(C)C.[177Lu+3] (mixture of isomers),HT-29 tumour model,,"host not given, blood","4 h, tumour-bearing",,tracer uptake,2.5 %ID/g
CCN(CC)CC#CCNc1ccnc2cc(Cl)ccc12,Salmonella typhimurium,mini-Ames test,TA100,"1000.0 µg/well, with rat liver S9",,revertants per well,10
COC1CN([C@H]2CC[C@H]([C@@]3(C)Oc4c(Cl)cc(C(=O)NCc5c(SC)cc(C)[nH]c5=O)c(C)c4O3)CC2)C1,,"RNA-seq, refers to: DAPK1 mouse homolog","mouse, HT-1376 xenograft, whole blood",dose not given,reference: vehicle,log2 fold change,0.212
CN(O)C(=O)CCC(=O)NCCCN(CCCCN(CCCNC(=O)CCC(=O)N(C)O)C(=O)CCC(=O)N(C)O)C(=O)CCC(=O)N(C)O.[89Zr],"TF (Homo sapiens, UniProt P02787)",transchelation challenge,,"concentration not given, 7 days, 37 °C, with: apo-transferrin 10 equiv",,transferrin binding,13 ± 0.4%
Cc1nn(-c2cccc(N)c2)c(=O)c2cnc(Nc3ccc(N4CCNCC4)cc3)nc12,"PHKG1 (Homo sapiens, UniProt Q16816)","kinase activity, inhibitor, SelectScreen kinase profiling",,,,IC50,> 10 µM
C=CC(=O)Nc1cccc(Cn2ncc3cnc(Nc4cnn(CCOC)c4)nc32)c1,TNIK human,"binding, KINOMEscan",,100 nM,lower = stronger binding,percent of control,100%
Cc1ncsc1-c1ccc(C(C)NC(=O)C2CC(O)CN2C(=O)C(NC(=O)CCCCCCCCCCN2CCCC(Nc3ncc(Cl)c(Nc4ccccc4S(=O)(=O)C(C)C)n3)C2)C(C)(C)C)cc1 (stereo not shown),22Rv1,"RNA-seq, refers to: ZNF518B mRNA",,concentration not given,reference: DMSO,log2 fold change,-1.6
Nc1ncc(-c2cc(-c3cnn(CC(F)(F)F)c3)ncc2F)nc1C(=O)NC1CNCC(F)C1 (stereo not shown),TNIK,KINOMEscan,,1 µM,reference: DMSO control,remaining binding,63%
CC(C)OCCOCc1ccc(OCC(O)CN(N=O)C(C)C)cc1 (stereo not shown),Salmonella typhimurium,Ames test,TA100,"158 µg/plate, without metabolic activation",reference: solvent control,revertant fold increase,0.9 fold
CN1CCCNC(=O)c2cccc(c2)C(=O)NCCCN(C)CCCNc2cccc3c2C(=O)c2cccc(c2C3=O)NCCC1,NHEK,CCK-8,,"0.05 µM, 48 h",reference: untreated,viability,84.5%
O=C(c1ccc(OCCN2CCCCC2)cc1)c1c(-c2ccc(O[C@@H]3O[C@H](C(=O)O)[C@@H](O)[C@H](O)[C@H]3O)cc2)sc2cc(O)ccc12,"SLCO1B3 (Homo sapiens, UniProt Q9NPD5)",substrate,HEK293 expressing SLCO1B3,pH 7.4,,intrinsic clearance,3.3 µL/min/mg protein
O=C1C2CC3CC1CC(C(=O)N1CCN(c4ccc([N+](=O)[O-])c5ncccc45)CC1)(C3)C2,Salmonella typhimurium,Ames test,TA100,"0.13 µg/well, without S9",,mean revertant colonies,20 colonies/well

# Some of these lines once more:
SMILES,tested on,test,test system,conditions,how to read,quantity,value
COC1CN([C@H]2CC[C@H]([C@@]3(C)Oc4c(Cl)cc(C(=O)NCc5c(SC)cc(C)[nH]c5=O)c(C)c4O3)CC2)C1,,"RNA-seq, refers to: DAPK1 mouse homolog","mouse, HT-1376 xenograft, whole blood",dose not given,reference: vehicle,log2 fold change,0.212
CN(O)C(=O)CCC(=O)NCCCN(CCCCN(CCCNC(=O)CCC(=O)N(C)O)C(=O)CCC(=O)N(C)O)C(=O)CCC(=O)N(C)O.[89Zr],"TF (Homo sapiens, UniProt P02787)",transchelation challenge,,"concentration not given, 7 days, 37 °C, with: apo-transferrin 10 equiv",,transferrin binding,13 ± 0.4%
